Published values collected from several papers.
± marks the error that the study gave.

Structure (SMILES) | assay | system | setting | tissue uptake
CSCC[C@H](NC(=O)CNC(=O)[C@H](CCCCN)NC(=O)[C@H](CC(C)C)NC(=O)[C@@H]1CCCN1C(=O)[C@H](CO)NC(=O)[C@H](Cc1c[nH]cn1)NC(=O)[C@H](Cc1c[nH]c2ccccc12)NC(=O)[C@H](CCCNC(=N)N)NC(=O)[C@H](CC(C)C)NC(=O)[C@H](CCCNC(=N)N)NC(=O)[C@H](Cc1c[nH]c2ccccc12)NC(=O)[C@H](CS)NC(=O)CCCCCNC(=O)CN1CCN(CC(=O)O)CCN(CC(=O)O)CCN(CC(=O)O)CC1)C(=O)O [copper-64 labelled] | ex vivo biodistribution | male C57BL/6J mice, kidney | intravenous, 1.85 MBq, 30 h, B16-F10 tumour-bearing | 7.45 %ID/g
CC(C)C[C@@H](NC(=O)[C@@H](CCCNC(=N)N)NC(=O)[C@@H](Cc1c[nH]cn1)NC(=O)[C@@H](Cc1c[nH]c2ccccc12)NC(=O)[C@@H](Cc1c[nH]cn1)NC(=O)[C@@H](Cc1ccccc1)NC(=O)[C@H](NC(=O)[C@@H](Cc1ccc(O)cc1)NC(=O)CNC(=O)CNC(=O)CCOCCOCCOCCNC(=O)CN1CCN(CC(=O)O)CCN(CC(=O)O)CC1)[C@H](C)O)C(=O)N[C@H](CC(N)=O)C(=O)N1CCC[C@@H]1C(=O)O [gallium-68 labelled] | – | C57BL/6 mice, male, muscle | intravenous, 1.85 MBq, 60 min, added: GP12 blocking | 0.66 ± 0.28 %ID/g
[2H]C([2H])([18F])[C@]([2H])(N)C(=O)O | PET | athymic nude mice, U-87 MG, tumor | dose not given, 30 min post-injection | 1.89 ± 0.25 %ID/cc
CC[C@H](C)[C@H](NC(=O)[C@H](CCCCN)NC(=O)CNC(=O)[C@H](CC(C)C)NC(=O)[C@H](Cc1ccccc1)NC(=O)[C@H](CCCCN)NC(=O)[C@H](CO)NC(=O)[C@H](Cc1ccccc1)NC(=O)[C@H](Cc1c[nH]c2ccccc12)NC(=O)[C@H](CCC(N)=O)NC(=O)[C@@H](NC(=O)[C@H](Cc1ccccc1)NC(=O)CCCCCNC(=O)CN1CCN(CC(=O)O)CCN(CC(=O)O)CCN(CC(=O)O)CC1)C(C)C)C(=O)N[C@@H](CCC(=O)O)C(=O)N1CCC[C@H]1C(=O)N[C@@H](CC(=O)O)C(=O)N[C@H](C(=O)N[C@@H](CO)C(=O)N[C@@H](CCC(N)=O)C(=O)N[C@H](C(=O)N[C@@H](CCC(N)=O)C(=O)N[C@@H](CC(=O)O)C(=O)N1CCC[C@H]1C(=O)N[C@@H](CC(N)=O)C(=O)N[C@@H](CC(=O)O)C(=O)N[C@@H](CCC(N)=O)C(=O)N[C@@H](Cc1ccc(O)cc1)C(=O)N[C@@H](CCC(=O)O)C(=O)N1CCC[C@H]1C(=O)N[C@@H](Cc1ccccc1)C(=O)O)C(C)C)C(C)C [copper-64 labelled] | – | C57BL/6 mice, male, tumour-free, pancreas | 1 h | 1.84 ± 0.8 %ID/g
CC[C@H](C)[C@H](NC(=O)[C@H](CCCNC(=N)N)NC(=O)[C@H](CCCCN)NC(=O)[C@H](Cc1ccc(O)cc1)NC(=O)[C@H](CC(=O)O)NC(=O)[C@H](C)NC(=O)CNC(=O)CCOCCOCCOCCNC(=O)CN1CCN(CC(=O)O)CCN(CC(=O)O)CCN(CC(=O)O)CC1)C(=O)N[C@H](C(=O)N[C@@H](CC(C)C)C(=O)N[C@@H](CCCCN)C(=O)N[C@H](C(=O)N[C@@H](CC(N)=O)C(N)=O)C(C)C)[C@@H](C)O [copper-64 labelled] | ex vivo gamma counting | C57BL/6J male mice, B16-F10 tumour, brain | intravenous, 1.85 MBq, 20 min | 0.126 ± 0.053 %ID/g
C[C@H](O)[C@@H](NC(=O)[C@H]1CCCN1C(=O)[C@@H](CCCCN)NC(=O)[C@@H](CO)NC(=O)[C@@H](Cc1ccc(O)cc1)NC(=O)[C@@H](CC(N)=O)NC(=O)CCOCCOCCOCCNC(=O)CN1CCN(CC(=O)O)CCN(CC(=O)O)CCN(CC(=O)O)CC1)C(=O)N[C@H](CC(=O)O)C(=O)N[C@H](CCCNC(=N)N)C(=O)N[C@H](CCC(N)=O)C(=O)N[C@H](Cc1ccc(O)cc1)C(=O)N[C@H](Cc1c[nH]cn1)C(=O)N[C@H](Cc1ccccc1)C(N)=O [gallium-68 labelled] | – | BALB/c nude mice U-87 MG tumour, bone | intravenous, 1.85 MBq, 0.5 h, radiolabelled | 0.85 ± 0.51 %ID/g
CC[C@H](C)[C@H](NC(=O)[C@H](CCCNC(=N)N)NC(=O)[C@H](CCCCN)NC(=O)[C@H](Cc1ccc(O)cc1)NC(=O)[C@H](CC(=O)O)NC(=O)[C@H](C)NC(=O)CNC(=O)CCOCCOCCOCCNC(=O)CN1CCN(CC(=O)O)CCN(CC(=O)O)CCN(CC(=O)O)CC1)C(=O)N[C@H](C(=O)N[C@H](C(=O)N[C@@H](CCCCN)C(=O)N[C@H](C(=O)N[C@@H](CC(N)=O)C(N)=O)C(C)C)C(C)C)[C@@H](C)O [copper-64 labelled] | ex vivo gamma counting | C57BL/6J male mice, B16-F10 tumour, kidney | intravenous, 1.85 MBq, 20 min | 12.5 ± 0.542 %ID/g
O=C([O-])CN1CCN(CC(=O)O)C[C@H](Cc2ccc(NC(=S)NCCCCC(NC(=O)CCCCCCC(=O)NCCCC[C@H](NC(=O)N[C@@H](CCC(=O)O)C(=O)O)C(=O)O)C(=O)O)cc2)N(CC(=O)[O-])Cc2cccc(n2)C1.[64Cu+2] (stereo partly drawn) | – | mice with PSMA+/- PC-3 tumours, PSMA- PC-3 flu tumour | 2 h post-injection, same-day comparison | 3.88 ± 0.62 %ID/g
CCCC[C@H]1C(=O)N(C)[C@@H](CCCC)C(=O)N[C@@H](CCCNC(=O)CN2CCN(CC(=O)O)CCN(CC(=O)O)CCN(CC(=O)O)CC2)C(=O)N[C@H](C(=O)NCC(N)=O)CSCC(=O)N[C@@H](Cc2ccc(O)cc2)C(=O)N(C)[C@@H](C)C(=O)N[C@@H](CC(N)=O)C(=O)N2CCC[C@H]2C(=O)N[C@@H](Cc2c[nH]cn2)C(=O)N[C@@H](CC(C)C)C(=O)N(C)CC(=O)N[C@@H](Cc2c[nH]c3ccccc23)C(=O)N[C@@H](CO)C(=O)N[C@@H](Cc2c[nH]c3ccccc23)C(=O)N1C [gallium-68 labelled] | – | NOD/SCID mice with CHO-hPD-L1 xenograft, spleen | 10 min post injection | 3.78 ± 0.54 %ID/g
